Measurements of several laboratories.
Each numbered part is a random draw from the data of one study; scales do not carry over between parts.
Sequence of UniProt P42336 (whole entry, unmodified, looked up): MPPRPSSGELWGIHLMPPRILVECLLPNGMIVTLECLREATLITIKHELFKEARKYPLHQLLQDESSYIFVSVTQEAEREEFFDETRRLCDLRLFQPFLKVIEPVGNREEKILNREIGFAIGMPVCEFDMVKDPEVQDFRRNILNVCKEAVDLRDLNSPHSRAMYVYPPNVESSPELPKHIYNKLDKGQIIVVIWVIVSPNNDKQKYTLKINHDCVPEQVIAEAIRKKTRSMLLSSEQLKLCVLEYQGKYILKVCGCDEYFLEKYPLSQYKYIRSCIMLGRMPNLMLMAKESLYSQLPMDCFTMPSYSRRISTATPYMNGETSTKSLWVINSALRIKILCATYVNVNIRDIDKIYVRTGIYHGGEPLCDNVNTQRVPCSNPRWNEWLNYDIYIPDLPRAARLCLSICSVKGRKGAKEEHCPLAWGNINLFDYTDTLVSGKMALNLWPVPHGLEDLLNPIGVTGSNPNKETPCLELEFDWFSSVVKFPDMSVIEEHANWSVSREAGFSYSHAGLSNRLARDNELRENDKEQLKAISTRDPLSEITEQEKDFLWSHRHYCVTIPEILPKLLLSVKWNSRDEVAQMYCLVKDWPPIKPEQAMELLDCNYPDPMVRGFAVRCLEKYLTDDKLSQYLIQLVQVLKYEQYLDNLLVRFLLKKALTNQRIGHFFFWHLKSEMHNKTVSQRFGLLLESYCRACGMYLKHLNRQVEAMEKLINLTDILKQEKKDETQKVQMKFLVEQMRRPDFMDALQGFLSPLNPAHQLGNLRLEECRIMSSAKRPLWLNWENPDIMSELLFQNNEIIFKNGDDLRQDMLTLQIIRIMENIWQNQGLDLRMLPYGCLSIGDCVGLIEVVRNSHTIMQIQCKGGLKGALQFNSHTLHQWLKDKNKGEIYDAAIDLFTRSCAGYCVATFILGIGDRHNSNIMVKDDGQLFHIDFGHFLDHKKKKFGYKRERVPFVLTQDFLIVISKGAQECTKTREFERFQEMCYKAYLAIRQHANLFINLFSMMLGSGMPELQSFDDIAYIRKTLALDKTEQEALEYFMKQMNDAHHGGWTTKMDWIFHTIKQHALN
Sequence of UniProt Q9UQB9 (whole entry, looked up): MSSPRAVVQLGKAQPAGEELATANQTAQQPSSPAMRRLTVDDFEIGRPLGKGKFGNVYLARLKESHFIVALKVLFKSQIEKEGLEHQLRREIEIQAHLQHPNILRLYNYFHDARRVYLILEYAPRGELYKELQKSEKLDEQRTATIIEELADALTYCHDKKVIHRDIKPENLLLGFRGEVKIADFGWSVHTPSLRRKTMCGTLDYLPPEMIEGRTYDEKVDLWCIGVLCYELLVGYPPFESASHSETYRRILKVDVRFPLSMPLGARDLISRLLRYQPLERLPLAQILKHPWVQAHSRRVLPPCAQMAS
Sequence of UniProt P49841 (whole entry, looked up): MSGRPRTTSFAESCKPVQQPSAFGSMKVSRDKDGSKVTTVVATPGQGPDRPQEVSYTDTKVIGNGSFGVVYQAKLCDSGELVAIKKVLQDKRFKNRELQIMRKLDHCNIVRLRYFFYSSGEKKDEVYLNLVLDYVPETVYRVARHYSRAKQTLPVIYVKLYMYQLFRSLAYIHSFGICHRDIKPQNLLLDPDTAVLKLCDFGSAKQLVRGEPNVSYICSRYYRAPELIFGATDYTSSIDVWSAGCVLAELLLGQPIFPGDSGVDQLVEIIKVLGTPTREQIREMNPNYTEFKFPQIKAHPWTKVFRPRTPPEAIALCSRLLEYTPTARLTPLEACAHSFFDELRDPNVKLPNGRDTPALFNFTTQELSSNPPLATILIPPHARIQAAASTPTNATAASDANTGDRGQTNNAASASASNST
Sequence of UniProt P31751 (whole entry, looked up): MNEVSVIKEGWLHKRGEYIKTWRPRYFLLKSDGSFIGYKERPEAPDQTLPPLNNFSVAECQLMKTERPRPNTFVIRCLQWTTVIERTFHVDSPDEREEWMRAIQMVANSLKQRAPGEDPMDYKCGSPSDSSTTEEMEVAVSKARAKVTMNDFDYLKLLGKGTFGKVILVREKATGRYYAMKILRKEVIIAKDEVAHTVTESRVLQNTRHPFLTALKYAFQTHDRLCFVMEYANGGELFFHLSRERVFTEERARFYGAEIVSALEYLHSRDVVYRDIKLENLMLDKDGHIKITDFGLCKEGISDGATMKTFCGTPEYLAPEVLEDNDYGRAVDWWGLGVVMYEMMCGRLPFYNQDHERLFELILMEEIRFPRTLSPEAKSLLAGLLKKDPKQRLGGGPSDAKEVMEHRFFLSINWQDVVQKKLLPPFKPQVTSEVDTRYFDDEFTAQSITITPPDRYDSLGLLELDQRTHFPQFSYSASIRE
Sequence of UniProt O75676 (whole entry, looked up): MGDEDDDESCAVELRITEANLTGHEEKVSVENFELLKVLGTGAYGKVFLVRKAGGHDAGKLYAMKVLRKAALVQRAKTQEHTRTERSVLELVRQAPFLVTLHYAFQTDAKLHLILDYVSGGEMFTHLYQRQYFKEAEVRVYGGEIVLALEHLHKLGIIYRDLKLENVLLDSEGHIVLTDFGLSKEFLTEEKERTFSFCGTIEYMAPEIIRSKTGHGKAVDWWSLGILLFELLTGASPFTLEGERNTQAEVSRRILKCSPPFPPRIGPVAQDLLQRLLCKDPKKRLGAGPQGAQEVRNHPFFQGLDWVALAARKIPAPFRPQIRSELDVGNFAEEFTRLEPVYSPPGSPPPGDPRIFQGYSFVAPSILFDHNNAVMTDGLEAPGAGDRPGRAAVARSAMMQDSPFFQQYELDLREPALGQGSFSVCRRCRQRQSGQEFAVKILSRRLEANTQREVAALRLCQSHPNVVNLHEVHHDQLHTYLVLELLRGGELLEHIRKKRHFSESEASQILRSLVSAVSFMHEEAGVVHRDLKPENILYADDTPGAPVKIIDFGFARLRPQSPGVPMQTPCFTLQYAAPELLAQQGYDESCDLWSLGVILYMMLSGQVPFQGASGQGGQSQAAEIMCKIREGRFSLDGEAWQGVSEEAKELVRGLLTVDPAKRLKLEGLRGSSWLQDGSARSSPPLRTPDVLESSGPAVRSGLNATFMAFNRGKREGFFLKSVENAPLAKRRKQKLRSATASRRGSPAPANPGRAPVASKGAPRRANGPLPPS
Sequence of UniProt Q6P3R8 (whole entry, looked up): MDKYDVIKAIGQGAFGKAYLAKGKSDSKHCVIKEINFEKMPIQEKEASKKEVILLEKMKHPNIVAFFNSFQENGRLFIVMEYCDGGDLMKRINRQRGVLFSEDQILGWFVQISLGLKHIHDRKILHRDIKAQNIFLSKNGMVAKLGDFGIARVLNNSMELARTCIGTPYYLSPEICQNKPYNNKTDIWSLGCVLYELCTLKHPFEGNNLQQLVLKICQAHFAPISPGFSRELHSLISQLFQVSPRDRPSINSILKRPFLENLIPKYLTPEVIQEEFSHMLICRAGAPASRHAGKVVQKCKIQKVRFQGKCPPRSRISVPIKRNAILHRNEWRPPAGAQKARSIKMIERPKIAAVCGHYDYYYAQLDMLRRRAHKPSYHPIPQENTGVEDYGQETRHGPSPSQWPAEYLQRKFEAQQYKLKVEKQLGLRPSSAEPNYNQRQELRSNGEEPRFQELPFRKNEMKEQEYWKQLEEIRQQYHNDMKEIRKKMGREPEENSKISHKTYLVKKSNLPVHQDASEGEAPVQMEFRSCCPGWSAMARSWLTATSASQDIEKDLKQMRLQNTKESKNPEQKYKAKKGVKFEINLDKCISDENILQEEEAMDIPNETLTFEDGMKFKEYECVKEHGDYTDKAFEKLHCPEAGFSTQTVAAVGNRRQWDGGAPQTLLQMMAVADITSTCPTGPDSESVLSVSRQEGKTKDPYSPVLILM
Sequence of UniProt Q96SB4 (whole entry, looked up): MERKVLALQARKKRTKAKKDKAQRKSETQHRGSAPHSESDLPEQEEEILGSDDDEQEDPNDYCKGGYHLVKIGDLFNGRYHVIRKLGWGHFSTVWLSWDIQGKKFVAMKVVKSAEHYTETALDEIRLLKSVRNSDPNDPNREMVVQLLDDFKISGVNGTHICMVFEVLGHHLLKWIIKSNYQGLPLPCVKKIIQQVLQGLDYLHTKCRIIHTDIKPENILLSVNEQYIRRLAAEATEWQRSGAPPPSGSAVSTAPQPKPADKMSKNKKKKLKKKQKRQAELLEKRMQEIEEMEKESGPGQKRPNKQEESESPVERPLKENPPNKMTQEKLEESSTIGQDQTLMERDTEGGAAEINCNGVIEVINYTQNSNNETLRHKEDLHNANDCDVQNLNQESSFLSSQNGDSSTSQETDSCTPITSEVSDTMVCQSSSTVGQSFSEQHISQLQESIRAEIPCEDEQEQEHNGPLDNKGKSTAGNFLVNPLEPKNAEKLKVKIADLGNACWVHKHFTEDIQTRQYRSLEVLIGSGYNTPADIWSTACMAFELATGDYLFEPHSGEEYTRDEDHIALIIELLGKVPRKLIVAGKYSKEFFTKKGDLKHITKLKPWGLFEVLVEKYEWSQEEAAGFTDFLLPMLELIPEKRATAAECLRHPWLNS

Sample 1
Cell line: Huh-7
Tested at: 10 µM
Time: 24 h
Endpoint: viability
Nc1ccc(/N=N/c2ccccc2)c(N)n1: 96.5%
CCS(=O)(=O)CCn1c([N+](=O)[O-])cnc1C: 93.4%
CN(C)CCC=C1c2ccccc2C=Cc2ccccc21: 100%
CCCc1ncc(C[n+]2ccccc2C)c(N)n1: 96%
O=C(Cn1ccnc1[N+](=O)[O-])NCCO: 79.3%

Sample 2
SMILES: O=C1NC(c2ccccn2)Sc2ccccc21 (stereo not drawn)
Tested at: 1 µM
Endpoint: remaining binding
PIK3CA (Homo sapiens, UniProt P42336, E542K); cell-free assay, competition with immobilised ligand: 100%
FGFR1 (Homo sapiens, UniProt P11362); cell-free assay, competition with immobilised ligand: 85%
WNK3 (Homo sapiens, UniProt Q9BYP7); cell-free assay, competition with immobilised ligand: 100%
MKNK2 (Homo sapiens, UniProt Q9HBH9); cell-free assay, competition with immobilised ligand: 100%
CSNK1D (Homo sapiens, UniProt P48730); cell-free assay, competition with immobilised ligand: 74%
TTK (Homo sapiens, UniProt P33981); cell-free assay, competition with immobilised ligand: 91%
STK10 (Homo sapiens, UniProt O94804); cell-free assay, competition with immobilised ligand: 100%
STK11 (Homo sapiens, UniProt Q15831); cell-free assay, competition with immobilised ligand: 87%
Aurora kinase C (AURKC, Homo sapiens, UniProt Q9UQB9); cell-free assay, competition with immobilised ligand: 90%
GSK3B (Homo sapiens, UniProt P49841); cell-free assay, competition with immobilised ligand: 65%
FLT3 (Homo sapiens, UniProt P36888, D835H); cell-free assay, competition with immobilised ligand: 65%
MYLK4 (Homo sapiens, UniProt Q86YV6); cell-free assay, competition with immobilised ligand: 90%
NEK5 (Homo sapiens, UniProt Q6P3R8); cell-free assay, competition with immobilised ligand: 72%
MAP2K4 (Homo sapiens, UniProt P45985); cell-free assay, competition with immobilised ligand: 93%
MAP2K1 (Homo sapiens, UniProt Q02750); cell-free assay, competition with immobilised ligand: 100%
MAP3K19 (Homo sapiens, UniProt Q56UN5); cell-free assay, competition with immobilised ligand: 92%
STK36 (Homo sapiens, UniProt Q9NRP7); cell-free assay, competition with immobilised ligand: 79%
Ribosomal protein S6 kinase alpha-4, N-terminal kinase domain (RPS6KA4, Homo sapiens, UniProt O75676); cell-free assay, competition with immobilised ligand: 100%
CDK17 (Homo sapiens, UniProt Q00537); cell-free assay, competition with immobilised ligand: 100%
CDK19 (Homo sapiens, UniProt Q9BWU1); competition binding: 100%
EPHA8 (Homo sapiens, UniProt P29322); cell-free assay, competition with immobilised ligand: 63%
AKT2 (Homo sapiens, UniProt P31751); cell-free assay, competition with immobilised ligand: 92%
MET (Homo sapiens, UniProt P08581, M1250T); cell-free assay, competition with immobilised ligand: 72%
SRPK1 (Homo sapiens, UniProt Q96SB4); cell-free assay, competition with immobilised ligand: 73%
ERN1 (Homo sapiens, UniProt O75460); cell-free assay, competition with immobilised ligand: 100%

Sample 3
Target: Calcium/calmodulin-dependent protein kinase type II subunit alpha (CAMK2A, Homo sapiens, UniProt Q9UQM7)
Sequence of UniProt Q9UQM7 (whole entry, looked up): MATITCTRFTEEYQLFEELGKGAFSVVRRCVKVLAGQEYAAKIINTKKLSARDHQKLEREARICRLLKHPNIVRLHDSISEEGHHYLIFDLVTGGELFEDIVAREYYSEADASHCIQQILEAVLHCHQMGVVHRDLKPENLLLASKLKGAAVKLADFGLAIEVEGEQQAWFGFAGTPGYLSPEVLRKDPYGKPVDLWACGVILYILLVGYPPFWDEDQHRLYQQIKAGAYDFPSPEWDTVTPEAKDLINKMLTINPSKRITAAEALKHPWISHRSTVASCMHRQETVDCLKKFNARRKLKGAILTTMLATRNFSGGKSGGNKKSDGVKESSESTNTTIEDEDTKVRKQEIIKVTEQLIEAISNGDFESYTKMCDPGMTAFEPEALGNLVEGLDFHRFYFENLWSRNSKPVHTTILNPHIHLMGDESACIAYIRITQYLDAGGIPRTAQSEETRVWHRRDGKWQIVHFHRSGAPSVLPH
Observed: enzyme activity
Mode: inhibitor
Tested at: 10 µM
Endpoint: inhibition
COc1ccc(CC(=O)O)cc1: -14%
O=C(O)COC(=O)Cc1ccccc1Nc1c(Cl)cccc1Cl: -3%
C[C@@H](O)[C@@H](O)C1=Nc2c(nc(N)[nH]c2=O)NC1: 0%
COc1ccc(-c2cc(=O)c3c(O)cc(O)c(-c4cc(-c5cc(=O)c6c(O)cc(O)cc6o5)ccc4OC)c3o2)cc1: 10%
N[C@@H](C(=O)N[C@@H]1C(=O)N2C(C(=O)O)=C(Cl)CS[C@H]12)c1ccccc1: 8%
C=C(C)[C@@H]1CC[C@]2(C(=O)O[C@@H]3O[C@H](CO[C@@H]4O[C@H](CO)[C@@H](O[C@@H]5O[C@@H](C)[C@H](O)[C@@H](O)[C@H]5O)[C@H](O)[C@H]4O)[C@@H](O)[C@H](O)[C@H]3O)CC[C@]3(C)[C@H](CC[C@@H]4[C@@]5(C)CC[C@H](O[C@@H]6OC[C@H](O)[C@H](O)[C@H]6O[C@@H]6O[C@@H](C)[C@H](O)[C@@H](O)[C@H]6O)[C@@](C)(CO)[C@@H]5CC[C@]43C)[C@@H]12: 14%
O=C(Nc1ncc([N+](=O)[O-])s1)c1ccccc1O: -1%
Oc1cc(O)c2c(c1)O[C@H](c1cc(O)c(O)c(O)c1)[C@H](O)C2: 10%
C[C@H](C(=O)O)c1cccc(C(=O)c2ccccc2)c1: 0%
CC1(C)CC[C@]2(C(=O)O[C@@H]3O[C@H](CO)[C@@H](O)[C@H](O)[C@H]3O)CC[C@]3(C)C(=CC[C@@H]4[C@@]5(C)CC[C@H](O[C@@H]6O[C@H](C(=O)O)[C@@H](O)[C@H](O[C@@H]7OC[C@@H](O)[C@H](O)[C@H]7O)[C@H]6O)C(C)(C)[C@@H]5CC[C@]43C)[C@@H]2C1: -3%

Sample 4
SMILES: CN1CCN(C(=O)c2ccc(NC(=O)Nc3ccc(N(C)c4ccnc(Nc5ccc(CS(C)(=O)=O)cc5)n4)cc3)cc2)CC1
Technique: competitive binding panel
Tested at: 1 µM
Relative to: vehicle
Endpoint: remaining binding
GRK7 (Homo sapiens, UniProt Q8WTQ7): 100%
SBK1 (Homo sapiens, UniProt Q52WX2): 65%
PIK3CA (Homo sapiens, UniProt P42336, M1043I): 100%
MAP3K4 (Homo sapiens, UniProt Q9Y6R4): 4%
CDK7 (Homo sapiens, UniProt P50613): 61%
NEK4 (Homo sapiens, UniProt P51957): 85%

Sample 5
Structure (SMILES): CC(C)n1cnc(-c2ccc(F)cc2)c1-c1ncc(C(=O)Nc2ccc(N3CCN(C)CC3)cc2)[nH]1
Endpoint: patients with proteinuria
phase 2a trial; idiopathic pulmonary fibrosis patients; 30 mg once daily, grade 3 emergent event: 0%
phase 2a trial; idiopathic pulmonary fibrosis patients; 60 mg once daily, grade 2 emergent event: 0%
human, idiopathic pulmonary fibrosis; 60 mg once daily, trial, treatment-emergent: 0%
phase 2a trial; idiopathic pulmonary fibrosis patients; 30 mg once daily, grade 2 emergent event: 0%
phase 2a trial; idiopathic pulmonary fibrosis patients; 60 mg once daily, grade 1 emergent event: 0%

Excerpt of the above (sample 2):
GSK3B (Homo sapiens, UniProt P49841); cell-free assay, competition with immobilised ligand: 65%
FLT3 (Homo sapiens, UniProt P36888, D835H); cell-free assay, competition with immobilised ligand: 65%
MYLK4 (Homo sapiens, UniProt Q86YV6); cell-free assay, competition with immobilised ligand: 90%
NEK5 (Homo sapiens, UniProt Q6P3R8); cell-free assay, competition with immobilised ligand: 72%
MAP2K4 (Homo sapiens, UniProt P45985); cell-free assay, competition with immobilised ligand: 93%
MAP2K1 (Homo sapiens, UniProt Q02750); cell-free assay, competition with immobilised ligand: 100%
MAP3K19 (Homo sapiens, UniProt Q56UN5); cell-free assay, competition with immobilised ligand: 92%
STK36 (Homo sapiens, UniProt Q9NRP7); cell-free assay, competition with immobilised ligand: 79%
